Measurements gathered from unrelated publications.
“And” joins repeats or separate records; there may be more than shown.
Target: Protein kinase C iota type (PRKCI, Homo sapiens, UniProt P41743)

For `Nc1ncc(-c2cc(-c3cnn(CC(F)(F)F)c3)ncc2F)nc1C(=O)NC1CNCC(F)C1` (stereo not shown), the remaining activity was 91.2% (enzyme activity; 1 µM; baseline: DMSO control).
The inhibition of `CCn1cc(C(=O)O)c(=O)c2c(N)c(F)c(NC3CCCCC3)cc21` is reported as -2.1% (kinase activity; 0.1 µM, added: ATP at Km).
For `Cc1ccc(-c2c(/C=C(\C#N)C(=O)NC(C)C)n(CCCO)c3ncnc(N)c23)cc1`, the remaining binding was 72% (cell-free assay, competition with immobilised ligand; 1 µM).
For `Cc1cccc(O[C@H]2CCC[C@@H](C(C)CNCc3ccncc3)C2)c1` (relative stereo), the inhibition was -3% (enzyme activity; 1 µM).
With `NC(=O)[C@@H](O)C[C@H]1CCc2sc3ncnc(O[C@H]4CC[C@H](N5CCOCC5)CC4)c3c21` the inhibition was 5% (enzyme activity, inhibitor; 10 µM).
With `COCC12C(=O)NC3C4(C(OC)CC1O)C1CC5(O)C(OC)C(O)C(OC(C)=O)(C1C5OC(=O)c1ccccc1)C3(O)C(OC)C24` (stereo not shown) the remaining activity was 90% and 104% (kinase activity, inhibitor, ProQinase kinase profiling; 25 µM; baseline: control).
Under “activity vs control”, `CNC(=O)C[C@H](Cc1ccc(C#N)cc1)NC(=O)c1cc(-c2ccc(CN[C@H](C)c3ccc(C)cc3)o2)ccc1Cl` is recorded as 96% (enzyme activity, inhibitor; 1 µM).
The remaining binding of `CNC(=O)C1CCN(c2cc(C)c(F)cc2NC(=O)c2ccc(-c3cc(O)ccc3C)c(C)c2)CC1` is reported as 84% (binding, competition with immobilised ligand; 1 µM).
The inhibition of `C=CC(=O)Nc1cccc(-c2cnc3[nH]cc(C(=O)NC(C)(C)C)c3n2)c1` is reported as 1% (enzyme activity, inhibitor; 0.1 µM).
For `CCN1CCN(Cc2ccc(C(=O)Nc3ccc(C)c(NCc4cnc5[nH]ccc5c4OC)c3)cc2C(F)(F)F)CC1`, the remaining binding was 70% (binding, competition with immobilised ligand; 1 µM).
For `C=CC(=O)N1CCc2ccc(-n3c(=O)ccc4cnc5ccc(-c6cnn(C)c6)cc5c43)cc21`, the remaining binding was 97% (KINOMEscan; 1 µM; baseline: DMSO control).
For `CN1CCN(Cc2ccc(-c3ccc(CO[C@H]4CCC[C@@H]4NC(=O)c4cc(-c5cnn(C)c5)cnc4N)cc3)cc2)CC1`, the inhibition was -6% (enzyme activity, inhibitor; 0.1 µM).
`C=CC(=O)N1Cc2nc(-c3cc(-c4cc(Cl)cnc4Cl)c(F)cc3F)n(-c3ccncn3)c2C1` has an inhibition of 2.1% (cell-free assay; 1 µM).
With `COc1ccc(NC(=O)Nc2ccc3c(c2)C(=O)N(C(C)CO)CC(C)C(CN(C)Cc2ccc4c(c2)OCO4)O3)cc1` (stereo not shown) the remaining activity was 99% (kinase activity, KinaseProfiler; 0.03 µM, species human; baseline: control).
For `COc1cc(Nc2nc(C)cc(-c3cnn4nc(OC)ccc34)n2)cc(C(F)(F)F)c1`, the remaining activity was 79% (inhibitor; 1 µM; baseline: control).
For `O=C=[N][Ru-4]123([n]4c5ccc(O)cc5c5c6c(c7cc(F)c[n+]1c7c54)C(=O)NC6=O)[S+]1CC[S+]2CC[S+]3CC1` (stereo not shown), the remaining activity was 88% (enzyme activity; 100 nM, human enzyme, added: 10 µM ATP; baseline: untreated).

A few entries again:
For `CCN1CCN(Cc2ccc(C(=O)Nc3ccc(C)c(NCc4cnc5[nH]ccc5c4OC)c3)cc2C(F)(F)F)CC1`, the remaining binding was 70% (binding, competition with immobilised ligand; 1 µM).
